{"data": "Measured values gathered from unrelated publications", "note": "Compare with care: the assays were run in different laboratories. Several values in a cell are separate wells, animals, samples, runs or records. ± marks the error that the study gave."}
{"SMILES": "C[C@H]1C[C@H]2CSC(N)=N[C@@]2(c2nc(NC(=O)c3ccc(OC(F)F)cn3)cs2)CO1", "assay": "measured: total Aβ", "system": "healthy adults, plasma", "setting": "5 mg once daily, day 14", "how to read": "baseline: placebo", "quantity": "percent change from baseline", "result": "-37.4%"}
{"SMILES": "CC[C@H](CO)Nc1nc(NCc2ccc(-c3ccccn3)cc2)c2ncn(C(C)C)c2n1", "system": "NOD scid gamma mouse, IMR-32 xenograft, tumour", "setting": "ip, dose not given, daily dosing", "quantity": "CK1ε protein level", "result": "decreased"}
{"SMILES": "Cc1cc(C)c(CNC(=O)c2cc(Cl)c3c(c2C)O[C@@](C)([C@H]2CC[C@H](N(C)C)CC2)O3)c(=O)[nH]1", "system": "relapsed/refractory non-Hodgkin lymphoma patients", "setting": "dose not given, efficacy set", "quantity": "overall response rate", "result": "55%"}
{"SMILES": "CCOCc1nc(O)c(-c2nnc(Cc3ccc(Cl)cn3)o2)c(O)c1-c1c(OC)cccc1OC", "system": "instrumented anaesthetised rat", "setting": "intravenous infusion, 10 µg/kg/min for 15 min, 15 min", "how to read": "baseline: baseline", "quantity": "dP/dtmax change", "result": "13.4 ± 1.6%"}
{"SMILES": "O=C(/C=C/c1ccc(O)c(O)c1/C=C/c1ccc(O)c(O)c1)O[C@H](Cc1ccc(O)c(O)c1)C(=O)O", "system": "isolated myocardial tissue", "setting": "10 µM", "quantity": "LVP", "result": "19.9 mmHg"}
{"SMILES": "COc1c(O)c(C)cc2c1C(=O)c1c(ccc(O)c1O)C2=O", "tested on": "HK-2 co-cultured with HepaRG", "assay": "MTT", "setting": "133.33 µM, 48 h", "how to read": "baseline: untreated control", "quantity": "viability", "result": "73.7 ± 12.1%"}
{"SMILES": "CC(C)n1ncc2c(C(=O)NCC3(C)CNC3)cc(C3CC3)nc21", "tested on": "coxsackievirus A6", "assay": "CPE", "system": "RD", "setting": "0.15 µM", "quantity": "cell protection", "result": "8.71% and 11.2%"}
{"SMILES": "Cn1cc(-c2ccc(-c3cncc(Cl)c3N3CCC4(CCNC4=O)CC3)cc2)cn1", "tested on": "COLO 205", "assay": "gene expression, microarray, measured: ISG15 mRNA", "setting": "concentration not given, 2 h", "how to read": "baseline: untreated cells", "quantity": "log2 fold change", "result": 2.59}
{"SMILES": "CCN1[C@@H](C(=O)NC23CCC(C(=O)O)(CC2)CC3)[C@H](c2cccc(Cl)c2F)[C@]2(C(=O)Nc3cc(Cl)ccc32)C12CCCCC2", "system": "human, advanced solid tumours, MDM2-amplified TP53 wild type", "setting": "dose not given, eight patients, RECIST", "quantity": "disease control rate", "result": "100%"}
{"SMILES": "COc1ccc(-c2cncc(N[C@@H](C)c3cccc(NC(=O)c4cncc(C)c4)c3)n2)cc1OC", "assay": "measured: rno-miR-185-5p", "system": "rat SU5416/hypoxia model, lung", "setting": "dose not given", "how to read": "baseline: SU5416/hypoxia vehicle", "quantity": "fold change", "result": 1.09}
{"SMILES": "Cc1cc([C@H]2C[C@H]3[C@@H](CF)SC(N)=N[C@@]3(c3ccc(F)cc3F)CO2)on1", "assay": "measured: Aβx-42", "system": "Mus musculus wild-type, brain", "setting": "subcutaneous, 100 mg/kg, 3 h", "quantity": "Aβ42 level", "result": "0.41 ng/g"}
{"SMILES": "O=C(O)CNC(=O)Cc1ccccc1", "system": "ventricular cardiomyocytes, C57BL/6 mouse", "setting": "dose not given, 0.164 s", "quantity": "sarcomere length", "result": "1.64 µm"}
{"SMILES": "CCO", "system": "supine", "setting": "concentration not given, 0 to 4 h", "how to read": "baseline: baseline", "quantity": "change in SBP AUEC(0-4 h)", "result": "-12.7 ± 27.1 mmHg·h"}
{"SMILES": "Cc1cc(O)c2c(c1)C(=O)c1cccc(O)c1C2=O", "tested on": "HK-2 co-cultured with HepaRG", "assay": "MTT", "setting": "266.67 µM, 48 h", "how to read": "baseline: untreated control", "quantity": "viability", "result": "23.6 ± 8.53%"}
{"SMILES": "O=P(O)(O)C(Cl)(Cl)P(=O)(O)O", "assay": "endothelial activation, immunostaining", "system": "Mus musculus, sham-operated, cortical capillary endothelium", "setting": "dose not given", "quantity": "VCAM-1 level", "result": "6.38 MFI"}
{"SMILES": "Cc1cc(F)cc2c(CCC(=O)N[C@@H]3C(=O)NC[C@H]3O)c(-c3ccc(F)cc3)[nH]c12", "system": "APOL1 G2 mice, IFNγ-induced", "setting": "30 mg/kg twice daily, day 14", "quantity": "urine albumin/creatinine ratio", "result": "219 µg/mg and 78.8 µg/mg and 56.4 µg/mg and 1070 µg/mg and 30.7 µg/mg"}
{"SMILES": "CC(C)C[C@H](NC(=O)C[C@H](O)[C@H](CC(C)C)NC(=O)[C@H](Cc1c[nH]cn1)NC(=O)CNC(=O)[C@@H](NC(=O)[C@H](C)NC(=O)[C@H](Cc1c[nH]c2ccccc12)NC(=O)[C@H](CCC(N)=O)NC(=O)[C@@H](Cc1ccccc1)NC(=O)COCCOCCNC(=O)CCC(C(=O)O)N1CCN(CC(=O)O)CCN(CC(=O)O)CCN(CC(=O)O)CC1)C(C)C)C(N)=O (stereo partly shown) [lutetium-177 labelled]", "system": "BALB/c nu/nu mice, bone", "setting": "intravenous, 250 pmol, 1 h, added: PA 300 µg", "quantity": "tissue uptake", "result": "0.21 ± 0.04 %ID/g"}
{"SMILES": "Cc1cn(-c2cc(NC(=O)c3ccc(C)c(Nc4nccc(-c5cccnc5)n4)c3)cc(C(F)(F)F)c2)cn1", "assay": "measured: total tau", "system": "human, cerebrospinal fluid", "setting": "dose not given, 6 months versus baseline, unit not given", "how to read": "baseline: placebo", "quantity": "median difference in change", "result": 47.6}
{"SMILES": "CC(C)c1c(C(=O)Nc2ccccc2)c(-c2ccccc2)c(-c2ccc(F)cc2)n1CC[C@@H](O)C[C@@H](O)CC(=O)O", "system": "cynomolgus monkey, female, serum", "setting": "40 mg/kg or 25 mg/kg, day 86, 2064 h", "quantity": "LDL-C", "result": "43.3 mg/dL"}
{"SMILES": "CC(C)NCC(O)c1ccc(O)c(O)c1 (stereo not shown)", "system": "ventricular cardiomyocytes, C57BL/6 mouse", "setting": "dose not given, 0.436 s", "quantity": "sarcomere length", "result": "1.72 µm"}
{"SMILES": "c1ccc(-c2n[nH]cc2-c2ccnc3ccccc23)nc1", "assay": "kinase binding, competitor, MIB/MS competition, measured: IRE1", "system": "Candida albicans cell lysate", "setting": "1 µM", "how to read": "baseline: DMSO", "quantity": "log2 fold change", "result": 1.04}
{"SMILES": "CN[C@@H]1COc2c(S(=O)(=O)NC(=O)Nc3c4c(cc5c3CCC5)CCC4)cnn2C1", "assay": "measured: IL-18", "system": "human participants, whole blood ex vivo", "setting": "150 mg single dose, 24 h, IL-18, circulating, adjusted for, added: LPS/ATP", "how to read": "baseline: baseline", "quantity": "inhibition", "result": "78.1%"}
{"SMILES": "COc1cccc(CC2NC(=O)CN(Cc3ccccc3)C2=O)c1I (stereo not shown)", "assay": "electronic von Frey", "system": "rat spinal nerve ligation", "setting": "intraperitoneal, 3 mg/kg, up to 3 h, added: gabapentin 30 mg/kg i.p.", "quantity": "mechanical paw withdrawal threshold", "result": "decreased"}
{"SMILES": "N=C(N)NCCC[C@H](NC(=O)[C@H](CCCNC(=N)N)NC(=O)[C@H](CCCCN)NC(=O)[C@H](CCC(N)=O)NC(=O)[C@H](CCCCN)NC(=O)[C@H](Cc1ccc(O)cc1)NC(=O)[C@@H](N)CCCCN)C(=O)N[C@@H](CO)C(=O)N[C@@H](Cc1ccc(O)cc1)C(=O)N[C@@H](CCCCN)C(=O)O", "system": "dentin hypersensitivity patients", "setting": "10 µg/tooth single, day 22, higher-VAS tooth", "how to read": "baseline: baseline", "quantity": "cold water VAS change", "result": "-33.8 ± 19.6 mm"}
{"SMILES": "NCC(=O)Nc1cncc(-c2nn3c(=O)cc(N4CCNCC4)nc3s2)c1", "assay": "ADP-induced platelet aggregation, light transmission aggregometry", "system": "human stable CAD patients on aspirin, platelets ex vivo", "setting": "0.04 mg/kg, 60 min post dose, added: 20 µM ADP", "how to read": "baseline: placebo difference", "quantity": "inhibition of platelet aggregation", "result": "21.8%"}
{"SMILES": "OC(CCN1CCCCC1)(c1ccccc1)C1CC2C=CC1C2 (stereo not shown)", "assay": "resting-state EEG", "system": "healthy elderly humans", "setting": "oral, 4 mg, eyes open, LS mean", "how to read": "baseline: baseline", "quantity": "change in EEG Beta2-power Pz-O1", "result": "-2.2%"}
{"SMILES": "N#Cc1ccc2c(-c3ccncc3)c(-c3ccc(F)cc3)nn2c1", "assay": "kinase binding, competitor, MIB/MS competition, measured: CEK1", "system": "Candida albicans cell lysate", "setting": "100 nM", "how to read": "baseline: DMSO", "quantity": "log2 fold change", "result": -0.271}
{"SMILES": "CCN1CCN(Cc2ccc(Nc3ncc(F)c(-c4cc(F)c5nc6n(c5c4)[C@H](C)CCC6)n3)nc2)CC1", "system": "human advanced solid tumours", "setting": "200 mg, phase Ia monotherapy RECIST 1.1", "quantity": "non-CR/non-PD", "result": "0%"}
{"SMILES": "N#Cc1ccn2c(-c3ccncc3)c(-c3ccc(F)cc3)nc2c1", "assay": "kinase binding, competitor, MIB/MS competition, measured: RIM8", "system": "Candida albicans cell lysate", "setting": "100 nM", "how to read": "baseline: DMSO", "quantity": "log2 fold change", "result": -0.0882}
{"SMILES": "N#Cc1ccc2c(CN3CCOCC3)cc(-c3ccc([C@H]4CCC(=O)N4)cc3)nc2c1", "assay": "no effect, measured: Il6", "system": "BTBR ob/ob mice, female, diabetic wound model, wound tissue", "setting": "dose not given, 21 days", "how to read": "baseline: vehicle", "quantity": "mRNA level", "result": "no effect"}
{"SMILES": "C=C1CC[C@H](OCCCNC(=O)CCOCCOCCOCCOCCOCCOCCOCCOCCOCCOCCOCCOCCOCCOCCOCCOCCOCCOCCOCCOCCOCCOCCOCCOCCOCCOCCOCCOCCOCCOCCOCCOCCOCCOCCOCCOCCNC(=O)CCN2C(=O)CC(SC[C@H](NC(=O)[C@H](CCCNC(=N)N)NC(=O)[C@@H]3CCCN3C(=O)[C@H](CCC(N)=O)NC(=O)[C@H](CC(C)C)NC(=O)[C@H](CCCCN)NC(=O)[C@H](C)NC(=O)[C@@H]3CCCN3C(=O)[C@@H]3CCCN3C(=O)[C@H](CCCCN)NC(=O)[C@H](CCCCN)NC(=O)[C@H](CO)NC(=O)[C@H](CCC(=O)O)NC(=O)[C@H](CCCCN)NC(=O)[C@H](CCCNC(=N)N)NC(=O)[C@H](CCC(N)=O)NC(=O)[C@H](CCC(N)=O)NC(=O)[C@@H](NC(=O)[C@H](CCCNC(=N)N)NC(=O)[C@H](CCC(N)=O)NC(=O)[C@H](Cc3c[nH]cn3)NC(=O)[C@H](CCC(=O)O)NC(=O)[C@@H]3CCCN3C(=O)[C@H](CO)NC(=O)[C@H](CC(C)C)NC(=O)[C@H](Cc3ccccc3)NC(=O)[C@H](CNC(=O)CCCCCCC)NC(=O)[C@H](CO)NC(=O)CN)C(C)C)C(=O)O)C2=O)C/C1=C/C=C1\\CCC[C@]2(C)[C@@H]([C@H](C)CCCC(C)(C)O)CC[C@@H]12 (stereo partly shown)", "assay": "real-time RT-PCR, measured: Bnip3", "system": "mice, LLC tumour-bearing, gastrocnemius/plantaris muscle", "setting": "daily or every other day", "how to read": "baseline: tumour-bearing vehicle", "quantity": "mRNA level", "result": "decreased"}
